Assay results pooled from the literature.
Each numbered part is a random draw from the data of one study; scales do not carry over between parts.
UniProt P35462, sequence (whole entry, looked up): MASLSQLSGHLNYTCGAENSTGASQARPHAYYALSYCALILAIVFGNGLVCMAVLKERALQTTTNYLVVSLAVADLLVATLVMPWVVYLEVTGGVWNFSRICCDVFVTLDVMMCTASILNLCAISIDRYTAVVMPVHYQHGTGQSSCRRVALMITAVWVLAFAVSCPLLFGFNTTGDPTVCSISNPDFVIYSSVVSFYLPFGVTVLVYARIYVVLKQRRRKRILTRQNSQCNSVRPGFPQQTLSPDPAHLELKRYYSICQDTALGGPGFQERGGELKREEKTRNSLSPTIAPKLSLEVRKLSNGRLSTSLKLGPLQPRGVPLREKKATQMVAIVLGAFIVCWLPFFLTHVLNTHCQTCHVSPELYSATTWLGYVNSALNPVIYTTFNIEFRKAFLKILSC
UniProt Q16288, sequence (whole entry, looked up): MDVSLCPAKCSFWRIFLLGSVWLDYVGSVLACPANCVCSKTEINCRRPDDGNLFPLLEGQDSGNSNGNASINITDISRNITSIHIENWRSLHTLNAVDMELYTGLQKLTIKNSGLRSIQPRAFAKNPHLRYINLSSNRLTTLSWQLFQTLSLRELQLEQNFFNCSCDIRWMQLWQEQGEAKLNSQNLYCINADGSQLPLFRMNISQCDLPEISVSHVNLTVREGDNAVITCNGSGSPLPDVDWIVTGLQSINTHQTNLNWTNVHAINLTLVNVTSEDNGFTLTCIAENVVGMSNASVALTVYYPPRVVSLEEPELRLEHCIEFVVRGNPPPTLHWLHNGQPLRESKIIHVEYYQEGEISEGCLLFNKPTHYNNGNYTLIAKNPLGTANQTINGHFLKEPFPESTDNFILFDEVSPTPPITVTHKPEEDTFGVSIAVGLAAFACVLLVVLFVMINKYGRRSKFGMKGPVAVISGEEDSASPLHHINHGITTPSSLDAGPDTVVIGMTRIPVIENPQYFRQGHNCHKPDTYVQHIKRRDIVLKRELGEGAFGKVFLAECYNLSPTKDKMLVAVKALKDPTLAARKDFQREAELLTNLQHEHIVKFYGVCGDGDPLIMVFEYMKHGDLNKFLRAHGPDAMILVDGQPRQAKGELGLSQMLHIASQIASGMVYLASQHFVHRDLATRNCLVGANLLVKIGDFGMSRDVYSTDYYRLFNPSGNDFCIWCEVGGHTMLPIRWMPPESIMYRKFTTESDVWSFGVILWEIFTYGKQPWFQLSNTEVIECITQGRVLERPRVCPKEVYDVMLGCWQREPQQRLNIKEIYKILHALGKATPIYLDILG
UniProt P21917, sequence (whole entry, looked up): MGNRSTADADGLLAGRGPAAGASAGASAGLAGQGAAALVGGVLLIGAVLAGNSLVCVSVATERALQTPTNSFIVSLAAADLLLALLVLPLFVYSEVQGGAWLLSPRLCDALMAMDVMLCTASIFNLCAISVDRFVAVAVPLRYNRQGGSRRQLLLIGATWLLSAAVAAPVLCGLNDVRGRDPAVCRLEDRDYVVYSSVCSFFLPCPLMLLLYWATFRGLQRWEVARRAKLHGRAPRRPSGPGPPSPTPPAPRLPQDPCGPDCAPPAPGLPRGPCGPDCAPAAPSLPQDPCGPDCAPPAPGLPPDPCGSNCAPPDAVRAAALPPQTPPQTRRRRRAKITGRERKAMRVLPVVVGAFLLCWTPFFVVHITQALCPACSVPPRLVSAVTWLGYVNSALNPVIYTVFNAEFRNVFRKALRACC
UniProt P35348, sequence (whole entry, looked up): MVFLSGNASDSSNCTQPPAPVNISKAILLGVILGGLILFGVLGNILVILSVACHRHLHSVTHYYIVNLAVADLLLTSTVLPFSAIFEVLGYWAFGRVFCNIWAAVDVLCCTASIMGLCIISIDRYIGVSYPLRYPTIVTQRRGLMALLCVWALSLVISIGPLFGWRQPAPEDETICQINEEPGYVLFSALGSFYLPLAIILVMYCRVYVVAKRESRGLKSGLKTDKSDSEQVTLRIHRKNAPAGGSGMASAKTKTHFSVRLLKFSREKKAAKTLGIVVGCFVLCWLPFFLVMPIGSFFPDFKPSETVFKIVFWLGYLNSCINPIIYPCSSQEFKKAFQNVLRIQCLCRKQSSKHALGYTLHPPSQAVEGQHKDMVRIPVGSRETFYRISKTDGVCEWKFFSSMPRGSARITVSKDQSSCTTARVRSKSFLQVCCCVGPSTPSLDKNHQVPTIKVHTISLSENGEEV
UniProt Q96BR1, sequence (whole entry, looked up): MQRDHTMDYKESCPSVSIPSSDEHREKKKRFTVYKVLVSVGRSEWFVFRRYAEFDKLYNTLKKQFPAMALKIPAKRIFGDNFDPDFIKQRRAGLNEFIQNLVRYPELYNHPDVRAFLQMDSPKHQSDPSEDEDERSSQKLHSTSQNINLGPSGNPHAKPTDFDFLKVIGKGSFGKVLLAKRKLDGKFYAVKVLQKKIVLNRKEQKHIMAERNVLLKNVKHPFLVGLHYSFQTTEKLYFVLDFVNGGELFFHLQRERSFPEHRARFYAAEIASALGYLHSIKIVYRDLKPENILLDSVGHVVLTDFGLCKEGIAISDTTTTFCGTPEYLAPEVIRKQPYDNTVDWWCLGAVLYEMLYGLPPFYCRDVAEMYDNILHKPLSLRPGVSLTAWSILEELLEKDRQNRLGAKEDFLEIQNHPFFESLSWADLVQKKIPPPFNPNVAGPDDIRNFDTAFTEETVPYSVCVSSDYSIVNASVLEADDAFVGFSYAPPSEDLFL
UniProt P50406, sequence (whole entry, looked up): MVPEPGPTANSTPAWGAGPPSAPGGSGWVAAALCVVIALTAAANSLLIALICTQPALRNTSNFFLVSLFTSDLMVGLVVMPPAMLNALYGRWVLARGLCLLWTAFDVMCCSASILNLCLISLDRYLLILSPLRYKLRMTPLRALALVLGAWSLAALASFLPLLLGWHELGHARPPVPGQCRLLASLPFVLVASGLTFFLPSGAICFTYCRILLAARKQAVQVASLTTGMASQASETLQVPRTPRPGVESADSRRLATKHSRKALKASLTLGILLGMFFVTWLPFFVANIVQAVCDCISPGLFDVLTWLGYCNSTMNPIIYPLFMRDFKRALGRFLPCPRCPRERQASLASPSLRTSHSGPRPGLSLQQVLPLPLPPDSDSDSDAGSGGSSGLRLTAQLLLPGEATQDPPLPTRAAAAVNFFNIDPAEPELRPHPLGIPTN
UniProt Q99720, sequence (whole entry, looked up): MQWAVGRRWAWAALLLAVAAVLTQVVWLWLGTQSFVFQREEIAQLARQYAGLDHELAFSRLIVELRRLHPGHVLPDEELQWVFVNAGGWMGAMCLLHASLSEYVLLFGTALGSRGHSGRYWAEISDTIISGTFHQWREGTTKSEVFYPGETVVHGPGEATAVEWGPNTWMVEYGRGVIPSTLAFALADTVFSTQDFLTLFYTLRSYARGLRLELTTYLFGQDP
UniProt Q13163, sequence (whole entry, looked up): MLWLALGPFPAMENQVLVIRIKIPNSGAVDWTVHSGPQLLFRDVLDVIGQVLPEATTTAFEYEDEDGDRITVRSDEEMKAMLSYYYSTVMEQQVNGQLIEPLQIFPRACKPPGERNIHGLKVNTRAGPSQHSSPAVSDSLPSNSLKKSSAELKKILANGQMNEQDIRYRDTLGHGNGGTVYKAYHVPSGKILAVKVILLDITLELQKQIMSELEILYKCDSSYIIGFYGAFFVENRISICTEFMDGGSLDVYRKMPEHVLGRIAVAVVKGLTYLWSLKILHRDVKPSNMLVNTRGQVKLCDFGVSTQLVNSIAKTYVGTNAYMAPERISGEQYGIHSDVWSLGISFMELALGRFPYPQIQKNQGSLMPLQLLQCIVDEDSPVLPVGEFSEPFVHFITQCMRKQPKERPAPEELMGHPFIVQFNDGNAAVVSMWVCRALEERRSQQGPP
UniProt P07550, sequence (whole entry, looked up): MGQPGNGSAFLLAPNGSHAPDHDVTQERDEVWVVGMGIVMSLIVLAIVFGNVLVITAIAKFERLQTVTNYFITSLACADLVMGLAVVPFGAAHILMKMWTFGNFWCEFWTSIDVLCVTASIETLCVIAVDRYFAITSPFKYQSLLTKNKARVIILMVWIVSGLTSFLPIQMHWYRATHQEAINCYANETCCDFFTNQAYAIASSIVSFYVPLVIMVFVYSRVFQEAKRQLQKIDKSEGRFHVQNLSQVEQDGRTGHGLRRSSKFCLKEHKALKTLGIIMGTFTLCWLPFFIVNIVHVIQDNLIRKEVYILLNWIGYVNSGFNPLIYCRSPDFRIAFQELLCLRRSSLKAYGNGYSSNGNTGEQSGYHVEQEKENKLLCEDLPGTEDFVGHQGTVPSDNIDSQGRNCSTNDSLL

Study 1
SMILES: CCCCN(CCCC)C(=O)CN1C[C@H](c2cc(OC)c3c(c2)OCO3)[C@@H](C(=O)O)[C@@H]1CC(C)(C)CCC
Effect on: binding
Technique: radioligand binding
Concentration: 10 µM
| target | inhibition |
| --- | --- |
| HTR2B (Homo sapiens, UniProt P41595) | -9.89% |
| ADRB2 (Homo sapiens, UniProt P07550) | -10.5% |
| DRD3 (Homo sapiens, UniProt P35462) | 17.3% |
| ADRA2A (Homo sapiens, UniProt P08913) | -17.1% |
| TMEM97 (Homo sapiens, UniProt Q5BJF2) | 48.4% |
| CHRM5 (Homo sapiens, UniProt P08912) | -13.8% |
| DRD4 (Homo sapiens, UniProt P21917) | 21.7% |
| ADRB1 (Homo sapiens, UniProt P08588) | -6.6% |
| DRD2 (Homo sapiens, UniProt P14416) | 21.3% |
| ADRA1A (Homo sapiens, UniProt P35348) | -2.13% |
| HTR6 (Homo sapiens, UniProt P50406) | -11.4% |
| SIGMAR1 (Homo sapiens, UniProt Q99720) | 29.6% |
| HRH3 (Homo sapiens, UniProt Q9Y5N1) | -3.57% |

Study 2
Cell line: HaCaT
Concentration: 100 µM
Time: 18 h
| SMILES | viability [%] |
| --- | --- |
| CC1(C)CCC(CN2CCN(c3ccc(C(=O)NS(=O)(=O)c4ccc(NCC5CCOCC5)c([N+](=O)[O-])c4)c(Oc4cnc5[nH]ccc5c4)c3)CC2)=C(c2ccc(Cl)cc2)C1 | 57.6 |
| COc1ccc2cccc(CCNC(C)=O)c2c1 | 84.2 |
| Nc1nc2c(c(=O)[nH]1)N(C=O)C(CNc1ccc(C(=O)N[C@@H](CCC(=O)O)C(=O)O)cc1)CN2 (stereo partly drawn) | 92.7 |
| CCCC(=O)O[C@]1(C(=O)CO)CC[C@H]2[C@@H]3CCC4=CC(=O)CC[C@]4(C)[C@H]3[C@@H](O)C[C@@]21C | 98.9 |
| CC(=O)Oc1cc(C)c(OC(C)=O)c2ccccc12 | 27.9 |
| CC(c1cc2ccccc2s1)N(O)C(N)=O (stereo not drawn) | 94.6 |
| O=C(O)Cc1cc(I)c(Oc2ccc(O)c(I)c2)c(I)c1 | 63.5 |
| CC(CN(C)C)CN1c2ccccc2Sc2ccccc21 (stereo not drawn) | 20.2 |
| C[C@H](CS)C(=O)N1CCC[C@H]1C(=O)O | 114 |
| CCOc1ccc(NC(C)=O)cc1 | 112 |

Study 3
Target: Mitogen-activated protein kinase kinase kinase 11 (MAP3K11, Homo sapiens, UniProt Q16584)
UniProt Q16584, sequence (whole entry, looked up): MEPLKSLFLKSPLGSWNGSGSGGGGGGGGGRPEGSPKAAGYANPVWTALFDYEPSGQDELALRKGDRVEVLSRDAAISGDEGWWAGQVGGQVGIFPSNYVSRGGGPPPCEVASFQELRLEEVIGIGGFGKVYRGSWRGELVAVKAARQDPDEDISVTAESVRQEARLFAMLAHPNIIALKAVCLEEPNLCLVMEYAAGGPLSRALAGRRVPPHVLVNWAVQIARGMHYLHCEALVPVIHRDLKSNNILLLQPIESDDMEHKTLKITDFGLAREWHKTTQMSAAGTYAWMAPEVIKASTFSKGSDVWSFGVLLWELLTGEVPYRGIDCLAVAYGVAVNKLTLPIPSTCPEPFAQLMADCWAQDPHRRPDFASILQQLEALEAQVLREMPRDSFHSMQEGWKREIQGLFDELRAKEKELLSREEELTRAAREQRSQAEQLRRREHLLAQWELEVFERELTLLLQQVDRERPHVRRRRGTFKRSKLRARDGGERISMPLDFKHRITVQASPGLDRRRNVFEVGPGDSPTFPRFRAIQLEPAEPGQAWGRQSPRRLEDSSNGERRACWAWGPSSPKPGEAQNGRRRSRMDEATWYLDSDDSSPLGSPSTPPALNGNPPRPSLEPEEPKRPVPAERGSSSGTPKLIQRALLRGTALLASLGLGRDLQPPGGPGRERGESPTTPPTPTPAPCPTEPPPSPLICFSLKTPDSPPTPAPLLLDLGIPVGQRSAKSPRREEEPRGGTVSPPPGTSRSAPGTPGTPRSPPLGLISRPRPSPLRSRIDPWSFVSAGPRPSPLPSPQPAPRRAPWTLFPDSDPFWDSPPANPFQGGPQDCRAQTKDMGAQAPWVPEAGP
Effect on: enzyme activity
Action: inhibitor
Concentration: 0.5 µM
Baseline: control
| Compound | remaining activity |
| --- | --- |
| O=Nc1c(-c2c(O)[nH]c3ccccc23)[nH]c2ccccc12 | 17.3% |
| FC(F)(F)c1ccc(/C=C/c2nc(COc3ccc(CCCCn4ccnn4)cc3)co2)cc1 | 99.1% |
| CCN(CC)CCCCN1c2ccccc2Oc2ccc(Cl)cc21 | 99.9% |
| CCCCc1c(-c2ccc(O)cc2)[nH]c2nccnc12 | 32.5% |
| O=C1c2ccccc2-c2nc3nnnn3nc21 | 69% |
| N#C/C(=C(/N)SC1C=CC=CC1)c1cccc(C(O)c2ccncc2)c1 (stereo not drawn) | 97.4% |
| NC(=O)c1cccc(-c2cc(Nc3ccc(OC(F)(F)F)cc3)ncn2)c1 | 99.4% |
| C[C@@H](N)[C@H]1CC[C@H](C(=O)Nc2ccncc2)CC1 | 99.1% |
| Nc1nc(Nc2ccc(S(N)(=O)=O)cc2)nn1C(=S)Nc1c(F)cccc1F | 1.33% |
| c1cc(-c2cnn3cc(-c4ccc(OCCN5CCCCC5)cc4)cnc23)ccn1 | 57.5% |
| CC(C)(C)c1nc2c3cc[nH]c(=O)c3c3cc(F)ccc3c2[nH]1 | 57% |

Study 4
SMILES: C=CC(=O)N1CCC([C@@H]2CCNc3c(C(N)=O)c(-c4ccc(Oc5ccccc5)cc4)nn32)CC1
Concentration: 1 µM
| target | assay | inhibition [%] |
| --- | --- | --- |
| EPHB6 (Homo sapiens, UniProt O15197) | cell-free assay | 29 |
| CSNK1G2 (Homo sapiens, UniProt P78368) | enzyme activity, inhibitor | 22 |
| EGFR (Homo sapiens, UniProt P00533, del747-752/P753S) | cell-free assay | 64 |
| CSF1R (Homo sapiens, UniProt P07333) | cell-free assay | 0 |
| MAP2K5 (Homo sapiens, UniProt Q13163) | enzyme activity, inhibitor | 94 |
| FLT3 (Homo sapiens, UniProt P36888, D835V) | enzyme activity, inhibitor | 93 |
| SGK3 (Homo sapiens, UniProt Q96BR1) | enzyme activity, inhibitor | 12 |
| NTRK3 (Homo sapiens, UniProt Q16288) | cell-free assay | 0 |
